Assay results collected from several papers.
Each line is one published result; not all experiments were run side by side. ± gives the spread as reported. ≈ marks a conversion by molar mass, not a printed value.

`CC(=CCC(O)C(C)=Cc1csc(C)n1)CC=CC(C)C(O)C(C)C(=O)C(C)(C)C(O)CC(=O)O` (stereo not drawn) gave an AUC ratio of 9.43 ± 4.86% (human, plasma; concentration not given, cycle 1; relative to: compound over KOS-1584).
With `O=C(Cc1ccc2ccccc2c1)N[C@H](Cc1ccccc1)C(=O)N[C@H](Cc1ccc(O)cc1)C(=O)N[C@H](Cc1ccccc1)C(=O)N[C@H](Cc1ccc(OP(=O)(O)O)cc1)C(=O)O` the dephosphorylation was > 40% (substrate; SAOS-2 cell lysate; 500 µM, 1 h, pH 7.4, 37 °C).
The LD50 of `Cc1nccc2c3ccccc3n(Cc3cccnc3)c12` is reported as 1430 mg/kg (OECD guideline; Kunming mice, both sexes; oral, single dose, 14 days).
`COc1ccc(NC(=O)Cn2c(=O)c3ccccc3n(CC(=O)Nc3cc([125I])c(OC)cc3OC)c2=O)cc1` gave a tracer uptake of 0.4 %ID/g (rat, pancreas; intravenous, 5 min).
`CCNc1cc2[o+]c3cc(NCC)c(C)cc3c(-c3ccccc3C(=O)OCCOCC[18F])c2cc1C` — result for “tissue uptake ratio”: 18.9 (rat; 60 min; relative to: heart over blood).
`[2H]C([2H])([2H])C([2H])([2H])C([2H])([2H])OC(C(=O)OC1CCNCC1)(c1ccccc1)c1ccccc1` gave an adverse events of 0% (item: any; healthy Japanese male; oral, 8 mg once daily, 16 days).
`N=C(N)NCc1ccc(C(=O)NCCCC[C@H](NC(=O)N[C@@H](CCC(=O)O)C(=O)O)C(=O)O)cc1[131I]` has a tissue uptake of 0.2 ± 0.11 %ID/g (SCID mouse, PC-3 xenografts, thyroid; 14 h).
Under “standard Gibbs energy of aggregation”, `CCCCCCCCCCCCC(=O)O.O=C1CCCC2C3CCCN4CCCC(CN12)C34` (stereo not drawn) is recorded as -8.83 kcal/mol (electrical conductivity; water; 313.15 K).
`CC[C@H](C)C(=O)N1CCC(NC(=O)Nc2ccc(OC(F)(F)F)c(F)c2)CC1`: “subjects with dyspnoea TEAE” 16.7% (healthy volunteers; oral, 2 mg single dose, 14 (unit not given)).
`C[C@]12CC[C@H](OCC[18F])C[C@H]1CC[C@@H]1[C@@H]2CC[C@]2(C)[C@@H](c3ccc(=O)oc3)CC[C@]12O` — result for “peak tissue uptake”: 39.8 ± 2.77 %ID/g (micro-PET; BALB/c nude mice, HepG2 xenograft, liver; intravenous, 7.4 MBq, 5 min).
`CN[C@](C)(C[18F])C(=O)O` gave a tissue uptake of 6.5 ± 0.9 %ID/g (SCID mouse DU-145 xenograft, spleen; 60 min, post injection).
Under “BA share of white cells”, `CC[C@H](C)[C@H](NC(=O)[C@H](CC(=O)O)NC(=O)[C@H](CO)NC(=O)[C@H](CCC(N)=O)NC(=O)[C@H](C)NC(=O)[C@H](CC(=O)O)NC(=O)[C@H](CCC(=O)O)NC(=O)[C@H](Cc1c[nH]cn1)NC(=O)[C@H](Cc1ccc(O)cc1)NC(=O)[C@H](C)NC(=O)[C@H](CC(=O)O)NC(=O)[C@H](CCC(=O)O)NC(=O)[C@H](Cc1c[nH]cn1)NC(=O)[C@H](Cc1ccc(O)cc1)NC(=O)[C@H](C)NC(=O)[C@H](CC(=O)O)NC(=O)[C@H](CCC(=O)O)NC(=O)[C@H](Cc1c[nH]cn1)NC(=O)[C@H](Cc1ccc(O)cc1)NC(=O)[C@H](C)NC(=O)[C@H](CC(=O)O)NC(=O)[C@H](CCC(=O)O)NC(=O)[C@H](Cc1c[nH]cn1)NC(=O)[C@H](Cc1ccc(O)cc1)NC(=O)[C@H](C)NC(=O)[C@H](CC(=O)O)NC(=O)[C@H](CCC(=O)O)NC(=O)[C@H](Cc1c[nH]cn1)NC(=O)[C@@H](N)Cc1ccc(O)cc1)C(=O)N[C@H](C(=O)N[C@@H](C)C(=O)N[C@@H](Cc1c[nH]cn1)C(=O)N[C@@H](CC(C)C)C(=O)N[C@@H](CC(C)C)C(=O)O)C(C)C` is recorded as 2.4 ± 0.6% (mouse SN model, blood; dose not given).
With `CCN(CC)CCOc1ccc(-c2nnn(Cc3ccc(OC)cc3)c2N)cc1` the oral bioavailability was 68.8% (Beagle dog; oral, 20 mg/kg).
With `CSCC[C@@H]1NC(=O)[C@@H]2CSSC[C@H](NC(=O)[C@H](CO)NC(=O)[C@H](C)N)C(=O)N[C@@H](CCCNC(=N)N)C(=O)N[C@@H]([C@@H](C)O)C(=O)N3CCC[C@H]3C(=O)N[C@@H](CCCCN)C(=O)N[C@@H](CC(=O)O)C(=O)N[C@H]3CSSC[C@H](NC(=O)[C@H](CCCCN)NC(=O)[C@H](CCCNC(=N)N)NC(=O)[C@H](CC(N)=O)NC1=O)C(=O)N[C@@H](CCCCN)C(=O)N[C@H]1CSSC[C@H](NC(=O)[C@@H]4CCCN4C(=O)[C@H](CC(=O)O)NC(=O)[C@H](C)NC3=O)C(=O)N[C@@H](C)C(=O)N[C@@H](CCCCN)C(=O)N[C@@H](CCC(=O)O)C(=O)N[C@@H]([C@@H](C)O)C(=O)NCC(=O)N[C@@H](CSSC[C@@H](C(N)=O)NC(=O)[C@H](CCCNC(=N)N)NC(=O)[C@H](CC(N)=O)NC1=O)C(=O)N1CCC[C@H]1C(=O)N[C@@H](Cc1ccc(O)cc1)C(=O)NCC(=O)N[C@@H](CCCCN)C(=O)N2` the Magnesium was 2.04 mg/dL (DA rat pristane-induced arthritis, serum; subcutaneous, 0.1 mg/kg single dose at onset, 21 days).
`CN(C)C(CNC(=O)Nc1cc(C(F)(F)F)ccc1N1CCOCC1)c1ccncc1` (stereo not drawn) has a serum albumin of 2.7 g/dL (mouse, serum; intraperitoneal, 240 mg/kg single dose).
`CC[C@H](C)[C@H](NC(=O)[C@@H](CCCCN)NC(=O)[C@H](CCCCN)NC(=O)[C@H](Cc1ccccc1)NC(=O)[C@H](CC(C)C)NC(=O)[C@@H](CCCCN)NC(=O)[C@H](Cc1c[nH]c2ccccc12)NC(=O)[C@H](CCCCN)NC(C)=O)C(=O)NCC(=O)N[C@@H](C)C(=O)N[C@H](C(=O)N[C@@H](CC(C)C)C(=O)N[C@@H](CCCCN)C(=O)N[C@H](CCCCN)C(=O)N[C@@H](CC(C)C)C(N)=O)C(C)C` has a hemolysis of < 5% (human red blood cells; up to 64 µM, 1 h, 5% red blood cells).
`NCC(=O)NCC(=O)NCC(=O)NCC(=O)NCC(=O)NCC(=O)NCCCC[C@H](NC(=O)[C@@H]1CCCN1C(=O)[C@@H]1CSSCCC(=O)N[C@@H](Cc2ccc(O)cc2)C(=O)N[C@@H](Cc2ccccc2)C(=O)N[C@@H](CCCC(N)=O)C(=O)N[C@@H](CC(N)=O)C(=O)N1)C(=O)NCC(N)=O` has a therapeutic index of ~100 (male Sprague Dawley rats; sc; relative to: NOAEL over NOEL).
`CC[C@@H]1C[C@]1(NC(=O)[C@@H]1C[C@@]2(CN1C(=O)[C@@H](NC(=O)[C@@H](NC(=O)[C@@H]1CCCCN1C(C)C)C1CCCCC1)C(C)(C)C)C(C)(C)C21CCC1)C(=O)NS(=O)(=O)N1CCCC1` — result for “subjects with adverse event”: 0% (item: Diarrhea; healthy human; oral, 10 mg, added: ritonavir 100 mg).
`O=S(=O)(O)C(F)(F)C(F)(F)OC(F)(C(F)(F)F)C(F)(F)OC(F)C(F)(F)F` (stereo not drawn) gave a median concentration of 2.47 ng/mL (human, exposed residents, serum; May 2018, 11 months after discharge).
For `CCCC[C@H]1C(=O)N(C)[C@@H](CCCC)C(=O)N[C@@H](CCCNC(=O)CN2CCN(CC(=O)O)CCN(CC(=O)O)CCN(CC(=O)O)CC2)C(=O)N[C@H](C(=O)NCC(N)=O)CSCC(=O)N[C@@H](Cc2ccc(O)cc2)C(=O)N(C)[C@@H](C)C(=O)N[C@@H](CC(N)=O)C(=O)N2CCC[C@H]2C(=O)N[C@@H](Cc2c[nH]cn2)C(=O)N[C@@H](CC(C)C)C(=O)N(C)CC(=O)N[C@@H](Cc2c[nH]c3ccccc23)C(=O)N[C@@H](CO)C(=O)N[C@@H](Cc2c[nH]c3ccccc23)C(=O)N1C` [gallium-68 labelled], “tumour to muscle ratio” read 3.5 ± 0.43 (static PET; NOD/SCID mice, CHO-hPD-L1 xenograft, CHO-hPD-L1 tumour; intravenous, 1 h post injection, after two atezolizumab treatments, added: atezolizumab 10 mg/kg).
The bioavailability of `C/C(=N\OCCCN1CCCCC1)c1ccc(C(F)(F)F)cc1` is reported as 76.4% (mouse, plasma; oral, 10 mg/kg).
For `COC(=O)C[C@](O)(CCCC(C)(C)OC(C)=O)C(=O)O[C@@H]1C(OC)=C[C@]23CCCN2CCc2cc4c(cc2[C@H]13)OCO4`, tissue concentration read “not detected” (CD1 mouse, brain; subcutaneous, 1 mg/kg, 8 h, below quantification limit 1.00 ng/mL).
For `COc1cc(NC(=O)C(=O)c2c(C)n(Cc3ccc(Cl)cc3)c3ccc(C)cc23)ccn1`, the Tmax was 3.2 h (male cynomolgus monkey, plasma; oral, 10 mg/kg).
`C[S+]1CC[S+]2CC[P+](CO)(CO)[Re-2]12(=[C]=O)(=[C]=O)=[C]=O.[Br-]` (stereo not drawn) — result for chemical stability: “stable” (saturated aqueous cysteine; 6 months, 25 °C).
`CC(C)[C@H](NC(=O)CNC(=O)[C@H](CCC(N)=O)NC(=O)[C@H](C)N)C(=O)O`: “drug-related adverse events” 0% (human; intravenous infusion, 15 mg/kg/h, 2 h, relatedness Probably; relative to: subjects).
For `CC1COCCN1c1nc(NCc2cccnc2C(F)(F)F)c2cccnc2n1` (stereo not drawn), the NOAEL was > 300 mg/kg (Sprague Dawley rat, both sexes; oral, 7 days).
The thermodynamic solubility of `N#Cc1ccc(NC(=O)c2cccnc2)cc1Cl` is reported as 39.3 ± 5.8 µg/mL (≈ 153 µM) (PBS; 24 h, pH 7.4, room temperature).
`CC[C@H](C)[C@@H]1NC(=O)[C@H](CCCCN)NC(=O)[C@H](CCCCN)NC(=O)[C@H](Cc2ccc(O)cc2)NC(=O)[C@H](CC(C)C)NC(=O)[C@@H]2CCCN2C(=O)CNC(=O)CNC(=O)[C@@H](N)CSSC[C@@H](C(=O)N[C@@H](CCC(=O)O)C(=O)N[C@@H](CO)C(N)=O)NC(=O)[C@H](CC(C)C)NC(=O)[C@H](CCCCN)NC(=O)[C@H](CCCCN)NC(=O)[C@H]([C@@H](C)CC)NC(=O)[C@H]([C@@H](C)CC)NC(=O)[C@H](CCCCN)NC(=O)[C@H](CCCCN)NC(=O)[C@H](Cc2ccc(O)cc2)NC(=O)[C@H](CC(C)C)NC(=O)[C@@H]2CCCN2C(=O)[C@H](C)NC(=O)CNC(=O)CNC(=O)[C@H](CO)NC(=O)CNC(=O)CNC(=O)[C@H](CO)NC(=O)[C@H](CCC(=O)O)NC(=O)[C@H](CC(C)C)NC(=O)[C@H](CC(C)C)NC(=O)[C@H](CCCCN)NC(=O)[C@H](CCCCN)NC(=O)[C@H]([C@@H](C)CC)NC1=O` gave an HC10 of 105 ± 2.9 µM (hemolysis; uninfected human erythrocytes; 1 h).
With `COc1cc2c3c(c4cc(OC)c(OC)cc4c2cc1OC)CN1CCCCC1C3` (stereo not drawn) the AUC(0-inf) was 265 ng·h/mL (Sprague-Dawley rat, male; oral, dose not given).
`CC(C)[C@H](NC(=O)[C@@H](NC(=O)[C@H](CCCNC(=N)N)NC(=O)[C@H](CCCNC(=N)N)NC(=O)[C@H](CCCNC(=N)N)NC(=O)[C@H](CCC(N)=O)NC(=O)[C@H](CCCNC(=N)N)NC(=O)[C@H](CCCNC(=N)N)NC(=O)[C@H](CCCCN)NC(=O)[C@H](CCCCN)NC(=O)[C@H](CCCNC(=N)N)NC(=O)CN)[C@@H](C)O)C(=O)N[C@H](C(=O)N[C@@H](CO)C(=O)N1CCC[C@H]1C(=O)O)[C@@H](C)O` has an LD50 of 454 mg/kg (mouse ICR; intranasal).
